{"data": "Experimental data from different studies", "note": "Each numbered part is a random draw from the data of one study; scales do not carry over between parts."}
{"data": "Set 1", "target": "Centromere-binding protein 1, full length, N-terminal tag (CBF1, Saccharomyces cerevisiae, UniProt P17106, residues 1-351)", "method": "protein-binding microarray", "form": "double-stranded DNA, one strand shown", "matrix": "in vitro", "tested at": "0.8 µM", "setting": "whole 60-bp probe, no competitor", "direction": "higher = stronger binding", "shared flanks, not repeated": "… GTCTTGATTCGCTTGACGCTGCTG", "UniProt P17106, sequence (whole entry, looked up)": "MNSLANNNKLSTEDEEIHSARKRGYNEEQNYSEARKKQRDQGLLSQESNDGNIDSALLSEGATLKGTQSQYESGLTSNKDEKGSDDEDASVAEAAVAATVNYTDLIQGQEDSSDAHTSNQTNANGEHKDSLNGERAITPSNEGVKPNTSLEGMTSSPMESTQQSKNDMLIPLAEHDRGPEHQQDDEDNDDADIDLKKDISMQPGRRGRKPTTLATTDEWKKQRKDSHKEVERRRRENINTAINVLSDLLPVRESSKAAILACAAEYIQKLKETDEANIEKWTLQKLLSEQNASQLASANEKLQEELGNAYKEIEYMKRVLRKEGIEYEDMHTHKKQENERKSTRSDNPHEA"}
{"Oligonucleotide": "TGTACGAAGCTATTTGATGTGACTATAGTAGTTAGG", "fluorescence intensity [a.u.]": 527}
{"Oligonucleotide": "CTATCCAAAACACATCACCAGATATAGGACTGATTC", "fluorescence intensity [a.u.]": 537}
{"Oligonucleotide": "CTATGCTCGGTCGACAACGTGTATGTTTTTGCCTTC", "fluorescence intensity [a.u.]": 600}
{"Oligonucleotide": "CTAGTTCTTCGAAGGCACATGGCGCCCCTATAATTC", "fluorescence intensity [a.u.]": 605}
{"Oligonucleotide": "GAAGCCTTTAGTAATCACGGGTTTTTTCCTATTTAG", "fluorescence intensity [a.u.]": 1370}
{"Oligonucleotide": "GAACGCTACGTAAAGTACATCATGTTTACCAGTTAG", "fluorescence intensity [a.u.]": 508}
{"Oligonucleotide": "CTAAACATAGAAGACCGCGTGATTCATTTTAGTTTC", "fluorescence intensity [a.u.]": 1360}
{"Oligonucleotide": "GAAGTTTCTTTCAAACTGATCACGTGAAAGGGATAG", "fluorescence intensity [a.u.]": 20800}
{"Oligonucleotide": "CTAATGAGCTTTCCTCGCGTCACGGTGTCAGTATTC", "fluorescence intensity [a.u.]": 1160}
{"Oligonucleotide": "GAAGGTAGTCTAAAGAACGTGCATCAGAGAAGATAG", "fluorescence intensity [a.u.]": 816}
{"Oligonucleotide": "CTATTATGACAAGTAGACATGATGCCGCAGCCTTTC", "fluorescence intensity [a.u.]": 524}
{"Oligonucleotide": "CCTAACTACTATAGTGGTGGGACATAGCTTCGTACA", "fluorescence intensity [a.u.]": 508}
{"Oligonucleotide": "GAACCTTTCACTTCCCACGTTTAGCGGGACAGGTAG", "fluorescence intensity [a.u.]": 534}
{"Oligonucleotide": "CTATCTCCCTCCTCCCACGTTATTTGTCTAGCATTC", "fluorescence intensity [a.u.]": 575}
{"Oligonucleotide": "CCTAACTACTATAATCACATGCCATAGCTTCGTACA", "fluorescence intensity [a.u.]": 1670}
{"Oligonucleotide": "CTAGGCATCACGTTCGTCGTGACATATGACTTGTTC", "fluorescence intensity [a.u.]": 2720}
{"Oligonucleotide": "TGTACGAAGCTATCACCGCTGATTATAGTAGTTAGG", "fluorescence intensity [a.u.]": 544}
{"Oligonucleotide": "CTAACCCCCAGCTGGGATGTGATCACGATGAGTTTC", "fluorescence intensity [a.u.]": 778}
{"Oligonucleotide": "CCTAACTACTATATGACTGTATTATAGCTTCGTACA", "fluorescence intensity [a.u.]": 540}
{"data": "Set 2", "target": "RNA binding protein fox-1 homolog 2, RRM domain, GST-SBP tag (RBFOX2, Homo sapiens, UniProt O43251-10, residues 100-194)", "method": "RNA Bind-n-Seq", "form": "RNA", "matrix": "in vitro", "tested at": "365 nM", "setting": "natural RNA segment, single round, ends assumed", "reference": "no-protein control", "direction": "higher = stronger binding", "shared flanks, not repeated": "GGGAGUUCUACAGUCCGACGAUC … UGGAAUUCUCGGGUGCCAA", "Construct (chain)": "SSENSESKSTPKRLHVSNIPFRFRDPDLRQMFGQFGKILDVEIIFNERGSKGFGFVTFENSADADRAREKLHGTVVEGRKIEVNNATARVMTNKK"}
{"Oligonucleotide": "GUAACUCUUGAUGGCAUUUCCCUUCUGAGUGAAGAUUUGAAAUAUGAUUGAUUAGAAUUGUGCUCUUGAUGGCUGGGAAUUUAGAAAUUUUAUUUUAAGAGUUAUUUCAU", "RBNS enrichment (R)": 0.641}
{"Oligonucleotide": "AGCUUAAAAUGCAUGACAGGAUAGUUUCUCAUUCUUUGAAACAUUUUCAGUCUCAAACUUUCUGCAUACUUUGCCUCCUUUAAAAGUUACAAAUAUUACAAAGUAAAAUC", "RBNS enrichment (R)": 0.578}
{"Oligonucleotide": "AGCCCCGUGCCCUUGUCUACAGCUGUCCCUUGUGCUUUCUGUGUCGUGUAGUUGGUGUGAGUAUUCUGUGACACAAGUGACGACAGGCUCAGUGACUGCCUGUACCUGUG", "RBNS enrichment (R)": 0.57}
{"Oligonucleotide": "CCAGUGUUAUCGUGUUUUAUAGCUGCCUUUCUGUGUCUUACACAGUUUGAGAGUAUAUGUUAAUGACUAUUUUUUUUAAAAAUGUUCUAUUGAAACCAGUGUAACAGCAC", "RBNS enrichment (R)": 0.465}
{"Oligonucleotide": "GACCUCCAACUCUCACCCACCCCCUCUACCAUCACCUCUAACCAGGCAAGCCAGGGUGGGAGAGCAAUCAGGAGAGCCAGGCCUCAGCUUCCAAUGCCUGGAGGGCCUCC", "RBNS enrichment (R)": 0.558}
{"Oligonucleotide": "CACUGCCUUUCCCCCUCCACCGAGGGCUAUUGGCUGACAAAGCCCCUUCCUGGCCUCACAACCACCACAGUGAUUUCCUGUAGUGUCUUACACUUCCAUGUCACCACAGC", "RBNS enrichment (R)": 0.251}
{"Oligonucleotide": "GAAAUAUUGUGAUGCCCACCACGUCUGUAUUUCUUCUCUACUCCCCAGUCUUAACGUUUAUCUUUGAAUGCUAUUUAUUCAAAUAGCGUGAGGAGUUAGAAGAUGAGGUG", "RBNS enrichment (R)": 0.334}
{"Oligonucleotide": "UACAGCUGGCUGUCUACUACUCAGAGGGCUUCAAAGGUGUGGGGUGGCCCUGCCAGCAGGCGGAGGAUGAGGCCCUCCUUCUCUGAGGACGGGUCUGCUGGAGAGAGAAG", "RBNS enrichment (R)": 1.15}
{"data": "Set 3", "target": "Fragile X messenger ribonucleoprotein 1, C-terminal low-complexity region (Fmr1, Mus musculus, UniProt P35922)", "method": "RNA Bind-n-Seq", "form": "RNA", "matrix": "in vitro", "tested at": "200 nM", "setting": "whole 134-nt RNA, ends assumed", "with": "150 mM LiCl", "reference": "input library", "direction": "higher = stronger binding", "library": "7-deaza-guanosine replaces G", "shared flanks, not repeated": "GGGAGUUCUACAGUCCGACGAUC … UGGAAUUCUCGGGUGUCAAGG"}
{"Oligonucleotide": "GCAGGAAGUAAAAACAAAUGGAAAUGCUUCGGAUAGUGGCAGGGGUGGGGGUUGCUAAGGAAAGGUUGGGAUGGGAGUGGGUAAAGAGUU", "log2 enrichment": 1.26}
{"Oligonucleotide": "AAGUCCUGUGCUACACAUCGUAUGUACCGAAUCGGGGAAAGGGGAAAGGGAAAGGGGAAAGUAUUAUGUUACGCCGUUCGGAUCUGCACU", "log2 enrichment": 1}
{"Oligonucleotide": "UCCUGUGCUACACAUCGUAUGUACCGAAUCGUGUGUGUGUGUGUGUGUGUGUGUGUGUGUAAAGUAUUAUGUUACGCCGUUCGGAUCUGC", "log2 enrichment": -0.453}
{"Oligonucleotide": "ACCAUGCAGGUGGGCAUCUUUGGGAAGUGGGGCAAGGGGGGGAUAGGGAGGGGGGUAACACUUUGGAAACAGGUGGUCCCAGGUCGUUUC", "log2 enrichment": 1.38}
{"Oligonucleotide": "CUGUGCUACACAUCGUAUGUACCGAAUCGGGGUUUUUUUGGGGUUUUUGGGGAAAAAGGGGAAAGUAUUAUGUUACGCCGUUCGGAUCUG", "log2 enrichment": 0.0196}
{"Oligonucleotide": "AGUCCUGUGCUACACAUCGUAUGUACCGAAUCGGGGAAAAGGGGAAAAGGGAAAAGGAAAGUAUUAUGUUACGCCGUUCGGAUCUGCACU", "log2 enrichment": -0.921}
{"Oligonucleotide": "CAAGUCCUGUGCUACACAUCGUAUGUACCGAAUCGGGAAAGGGAAAAAGGGAGGGAAAGUAUUAUGUUACGCCGUUCGGAUCUGCACUUC", "log2 enrichment": -0.261}
{"Oligonucleotide": "CACAGACAACACGCACCCACACAGACACAGAGGGAAGGGGUUGGGAUGGGGACAGGGUGCACAGCAGGGCGGGGUAGGAAACCAGCCCCU", "log2 enrichment": 1.65}
{"data": "Set 4", "target": "Histone acetyltransferase KAT6A, winged helix 1, GST fusion (KAT6A, Homo sapiens, UniProt Q92794, residues 1-85)", "method": "protein binding microarray", "form": "double-stranded DNA, one strand shown", "matrix": "in vitro", "tested at": "not given", "setting": "8-mer, flanks averaged, mean of 2 arrays, mostly near background", "reference": "not given", "direction": "higher = stronger binding", "Residues (chain)": "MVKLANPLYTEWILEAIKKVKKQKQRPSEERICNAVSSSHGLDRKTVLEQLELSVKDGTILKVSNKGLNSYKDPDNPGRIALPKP"}
{"Oligonucleotide": "GGGTGGAC", "E-score": -0.0884}
{"Oligonucleotide": "AACCACCG", "E-score": 0.0977}
{"Oligonucleotide": "CATGGGTC", "E-score": -0.284}
{"Oligonucleotide": "ATGCCAAG", "E-score": -0.255}
{"Oligonucleotide": "ACCACAAC", "E-score": -0.138}
{"Oligonucleotide": "GTACAATA", "E-score": -0.00979}
{"Oligonucleotide": "CGGGTATC", "E-score": 0.25}
{"Oligonucleotide": "ATGACCAC", "E-score": 0.0214}
{"Oligonucleotide": "ACCCCGTC", "E-score": 0.265}
{"Oligonucleotide": "CACAAGCA", "E-score": -0.349}
{"Oligonucleotide": "ATTACAAC", "E-score": -0.178}
{"Oligonucleotide": "AGGAGGTG", "E-score": -0.186}
{"Oligonucleotide": "TACGAGTA", "E-score": -0.0271}
{"Oligonucleotide": "ACACGTAT", "E-score": -0.0813}
{"Oligonucleotide": "AGGATACG", "E-score": -0.0688}
{"Oligonucleotide": "CATGTAAG", "E-score": 0.115}
{"Oligonucleotide": "CCCGGGTC", "E-score": 0.371}
{"note": "For quick reference, copied from above (set 4):"}
{"Oligonucleotide": "GGGTGGAC", "E-score": -0.0884}
{"Oligonucleotide": "AACCACCG", "E-score": 0.0977}
{"Oligonucleotide": "CATGGGTC", "E-score": -0.284}
{"Oligonucleotide": "ATGCCAAG", "E-score": -0.255}
{"Oligonucleotide": "ACCACAAC", "E-score": -0.138}
{"Oligonucleotide": "GTACAATA", "E-score": -0.00979}
{"Oligonucleotide": "CGGGTATC", "E-score": 0.25}
{"Oligonucleotide": "ATGACCAC", "E-score": 0.0214}
{"Oligonucleotide": "ACCCCGTC", "E-score": 0.265}
